Experimental data from different studies.
Compare with care: the assays were run in different laboratories. Values joined by “and” are separate records of one study, mostly repeats; a detail may differ. Numbers after ± are the reported error.

COc1ccccc1-c1n[nH]c2nc(NC3CCN(C(=O)Cc4ccc(F)cc4F)CC3)ncc12 — relative abundance (bead binding, competition bead pull-down, refers to: LMJF.25.1180; Leishmania donovani axenic amastigote extract; 10 µM; relative to: vehicle): 0.81
CC[C@H](C)[C@H](NC(=O)[C@H](CCCCN)NC(=O)CNC(=O)[C@H](CC(C)C)NC(=O)[C@H](Cc1ccccc1)NC(=O)[C@H](CCCCN)NC(=O)[C@H](CO)NC(=O)[C@H](Cc1ccccc1)NC(=O)[C@H](Cc1c[nH]c2ccccc12)NC(=O)[C@H](CCC(N)=O)NC(=O)[C@@H](NC(=O)[C@H](Cc1ccccc1)NC(=O)CCCCCNC(=O)CN1CCN(CC(=O)O)CCN(CC(=O)O)CCN(CC(=O)O)CC1)C(C)C)C(=O)N[C@@H](CCC(=O)O)C(=O)N1CCC[C@H]1C(=O)N[C@@H](CC(=O)O)C(=O)N[C@H](C(=O)N[C@@H](CO)C(=O)N[C@@H](CCC(N)=O)C(=O)N[C@H](C(=O)N[C@@H](CCC(N)=O)C(=O)N[C@@H](CC(=O)O)C(=O)N1CCC[C@H]1C(=O)N[C@@H](CC(N)=O)C(=O)N[C@@H](CC(=O)O)C(=O)N[C@@H](CCC(N)=O)C(=O)N[C@@H](Cc1ccc(O)cc1)C(=O)N[C@@H](CCC(=O)O)C(=O)N1CCC[C@H]1C(=O)N[C@@H](Cc1ccccc1)C(=O)O)C(C)C)C(C)C [copper-64 labelled] — tissue uptake (C57BL/6 mice, pancreas; vehicle, intratracheal instillation): 1.13 ± 0.09 %ID/g
CSCC[C@H](NC(=O)CNC(=O)[C@H](CCCCN)NC(=O)[C@H](CC(C)C)NC(=O)[C@@H]1CCCN1C(=O)[C@H](CO)NC(=O)[C@H](Cc1c[nH]cn1)NC(=O)[C@H](Cc1c[nH]c2ccccc12)NC(=O)[C@H](CCCNC(=N)N)NC(=O)[C@H](CC(C)C)NC(=O)[C@H](CCCNC(=N)N)NC(=O)[C@H](Cc1c[nH]c2ccccc12)NC(=O)[C@H](CS)NC(=O)CCCCCNC(=O)CN1CCN(CC(=O)O)CCN(CC(=O)O)CCN(CC(=O)O)CC1)C(=O)O [copper-64 labelled] — tissue uptake (BALB/c nude mouse, Huh-7 tumour, lymph node; intravenous, 6 h, ex vivo biodistribution): 2.43 %ID/g
CCCC[C@H]1C(=O)N(C)[C@@H](CCCC)C(=O)N[C@@H](CCCNC(=O)CN2CCN(CC(=O)O)CCN(CC(=O)O)CCN(CC(=O)O)CC2)C(=O)N[C@H](C(=O)NCC(N)=O)CSCC(=O)N[C@@H](Cc2ccc(O)cc2)C(=O)N(C)[C@@H](C)C(=O)N[C@@H](CC(N)=O)C(=O)N2CCC[C@H]2C(=O)N[C@@H](Cc2c[nH]cn2)C(=O)N[C@@H](CC(C)C)C(=O)N(C)CC(=O)N[C@@H](Cc2c[nH]c3ccccc23)C(=O)N[C@@H](CO)C(=O)N[C@@H](Cc2c[nH]c3ccccc23)C(=O)N1C [gallium-68 labelled] — tissue uptake (NOD/SCID mice, CHO-hPD-L1 xenograft, liver; 60 min, atezolizumab 10 mg/kg pretreatment): 8.46 ± 0.97 %ID/g
CC[C@H](C)[C@H](NC(=O)[C@H](CCCNC(=N)N)NC(=O)[C@H](CCCCN)NC(=O)[C@H](Cc1ccc(O)cc1)NC(=O)[C@H](CC(=O)O)NC(=O)[C@H](C)NC(=O)CNC(=O)CCOCCOCCOCCNC(=O)CN1CCN(CC(=O)O)CCN(CC(=O)O)CCN(CC(=O)O)CC1)C(=O)N[C@H](C(=O)N[C@H](C(=O)N[C@@H](CCCCN)C(=O)N[C@H](C(=O)N[C@@H](CC(N)=O)C(N)=O)C(C)C)C(C)C)[C@@H](C)O [copper-64 labelled] — tissue uptake (ex vivo gamma counting; C57BL/6J male mice, B16-F10 tumour, kidney; intravenous, 1.85 MBq, 40 min): 11 ± 0.227 %ID/g
Cc1ccc(OCCN(C)C)cc1C(=O)N[C@H](C)c1cc(-c2ccco2)nc2ccccc12 — viability (Vero E6; 3.906 µM): 101% and 99.8%
CC(C)(C)C(=O)OCOP(=O)(OCOC(=O)C(C)(C)C)C1CCCN(O)C1=O (stereo not drawn) — log GI50 (MDA-MB-468): -6.01 log M
CN1Cc2cc(Cl)ccc2-n2c(nnc2C2CCN(c3cccc([18F])n3)CC2)C1 — tissue uptake (C57BL/6 mouse male, muscle; intravenous, dose not given, 5 min, with: blocking agent 10 mg/kg): 3.75 ± 1.05 %ID/g
C[C@H](O)[C@@H](NC(=O)[C@H]1CCCN1C(=O)[C@@H](CCCCN)NC(=O)[C@@H](CO)NC(=O)[C@@H](Cc1ccc(O)cc1)NC(=O)[C@@H](CC(N)=O)NC(=O)CCOCCOCCOCCNC(=O)CN1CCN(CC(=O)O)CCN(CC(=O)O)CCN(CC(=O)O)CC1)C(=O)N[C@H](CC(=O)O)C(=O)N[C@H](CCCNC(=N)N)C(=O)N[C@H](CCC(N)=O)C(=O)N[C@H](Cc1ccc(O)cc1)C(=O)N[C@H](Cc1c[nH]cn1)C(=O)N[C@H](Cc1ccccc1)C(N)=O [copper-64 labelled] — tissue uptake (C57BL/6J mice, pancreas; intravenous, 1.85 MBq, 1.333 h, radiolabelled): 0.19 ± 0.04 %ID/g
CC[C@H](C)[C@H](NC(=O)[C@H](CCCNC(=N)N)NC(=O)[C@H](CCCCN)NC(=O)[C@H](Cc1ccc(O)cc1)NC(=O)[C@H](CC(=O)O)NC(=O)[C@H](C)NC(=O)CNC(=O)CCOCCOCCOCCNC(=O)CN1CCN(CC(=O)O)CCN(CC(=O)O)CCN(CC(=O)O)CC1)C(=O)N[C@H](C(=O)N[C@@H](CC(C)C)C(=O)N[C@@H](CCCCN)C(=O)N[C@H](C(=O)N[C@@H](CC(N)=O)C(N)=O)C(C)C)[C@@H](C)O [copper-64 labelled] — tissue uptake (ex vivo gamma counting; male C57BL/6J mouse, B16-F10 tumour, B16-F10 tumour; intravenous, 1.85 MBq, 40 min): 4.08 ± 1.32 %ID/g
CC(C)C[C@@H](NC(=O)[C@@H](CCCNC(=N)N)NC(=O)[C@@H](Cc1c[nH]cn1)NC(=O)[C@@H](Cc1c[nH]c2ccccc12)NC(=O)[C@@H](Cc1c[nH]cn1)NC(=O)[C@@H](Cc1ccccc1)NC(=O)[C@H](NC(=O)[C@@H](Cc1ccc(O)cc1)NC(=O)CNC(=O)CNC(=O)CCOCCOCCOCCNC(=O)CN1CCN(CC(=O)O)CCN(CC(=O)O)CC1)[C@H](C)O)C(=O)N[C@H](CC(N)=O)C(=O)N1CCC[C@@H]1C(=O)O [gallium-68 labelled] — tissue uptake (gamma counting; C57BL/6 mice, male, bone; intravenous, 1.85 MBq, 30 min): 0.65 ± 0.16 %ID/g
O=C1NC2(CC2)COc2ncc(F)cc2[C@H]2COCCN2c2ccn3ncc1c3n2 — serum hepatic lipase activity (Sprague-Dawley rat, female, serum; oral, 20 mg/kg/day, end of treatment, 4-week subacute toxicity): 3.8 ± 0.8 U/L

Repeated from above:
O=C1NC2(CC2)COc2ncc(F)cc2[C@H]2COCCN2c2ccn3ncc1c3n2 — serum hepatic lipase activity (Sprague-Dawley rat, female, serum; oral, 20 mg/kg/day, end of treatment, 4-week subacute toxicity): 3.8 ± 0.8 U/L
